Results collected from several papers.
Every numbered part comes from another study and shows a few of its results, in no order.
Sequence of UniProt P10721 (whole entry, unmodified, looked up): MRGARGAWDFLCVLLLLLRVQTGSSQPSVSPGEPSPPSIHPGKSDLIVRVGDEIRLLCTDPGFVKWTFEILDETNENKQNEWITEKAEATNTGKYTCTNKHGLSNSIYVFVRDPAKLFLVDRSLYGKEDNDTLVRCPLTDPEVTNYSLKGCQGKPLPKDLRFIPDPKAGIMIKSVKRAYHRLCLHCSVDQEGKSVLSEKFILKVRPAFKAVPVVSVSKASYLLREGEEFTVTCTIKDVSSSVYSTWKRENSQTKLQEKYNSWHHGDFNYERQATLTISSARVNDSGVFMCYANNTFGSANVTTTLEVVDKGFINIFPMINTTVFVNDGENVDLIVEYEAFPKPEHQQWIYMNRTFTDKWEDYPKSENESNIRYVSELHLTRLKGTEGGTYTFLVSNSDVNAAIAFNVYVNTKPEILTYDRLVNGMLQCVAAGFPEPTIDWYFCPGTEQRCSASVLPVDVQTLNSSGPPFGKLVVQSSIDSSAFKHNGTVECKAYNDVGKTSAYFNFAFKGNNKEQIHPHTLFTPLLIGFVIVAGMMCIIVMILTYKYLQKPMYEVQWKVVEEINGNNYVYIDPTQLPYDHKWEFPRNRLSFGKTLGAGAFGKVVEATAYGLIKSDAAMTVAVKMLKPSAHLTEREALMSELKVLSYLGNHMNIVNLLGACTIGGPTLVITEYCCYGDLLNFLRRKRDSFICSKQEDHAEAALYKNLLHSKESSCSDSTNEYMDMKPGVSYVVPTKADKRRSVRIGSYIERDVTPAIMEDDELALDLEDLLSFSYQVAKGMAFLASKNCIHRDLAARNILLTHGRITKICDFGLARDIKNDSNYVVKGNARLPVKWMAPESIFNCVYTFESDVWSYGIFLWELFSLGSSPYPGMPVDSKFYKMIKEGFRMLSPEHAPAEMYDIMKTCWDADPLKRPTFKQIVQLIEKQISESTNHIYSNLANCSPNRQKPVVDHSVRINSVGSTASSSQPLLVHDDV
Sequence of UniProt Q15208 (whole entry, looked up): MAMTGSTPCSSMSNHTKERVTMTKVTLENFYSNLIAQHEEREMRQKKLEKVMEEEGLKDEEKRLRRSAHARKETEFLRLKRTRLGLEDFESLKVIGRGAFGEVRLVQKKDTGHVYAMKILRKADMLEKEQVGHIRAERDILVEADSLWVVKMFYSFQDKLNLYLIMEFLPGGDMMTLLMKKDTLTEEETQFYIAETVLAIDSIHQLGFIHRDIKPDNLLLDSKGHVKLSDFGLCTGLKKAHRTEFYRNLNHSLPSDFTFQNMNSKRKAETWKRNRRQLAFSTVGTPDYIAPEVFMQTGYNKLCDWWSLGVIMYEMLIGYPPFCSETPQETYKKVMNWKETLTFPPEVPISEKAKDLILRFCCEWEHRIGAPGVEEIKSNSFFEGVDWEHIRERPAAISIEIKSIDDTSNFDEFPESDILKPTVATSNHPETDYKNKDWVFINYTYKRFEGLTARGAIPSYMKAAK
Sequence of UniProt Q9NYY3 (whole entry, looked up): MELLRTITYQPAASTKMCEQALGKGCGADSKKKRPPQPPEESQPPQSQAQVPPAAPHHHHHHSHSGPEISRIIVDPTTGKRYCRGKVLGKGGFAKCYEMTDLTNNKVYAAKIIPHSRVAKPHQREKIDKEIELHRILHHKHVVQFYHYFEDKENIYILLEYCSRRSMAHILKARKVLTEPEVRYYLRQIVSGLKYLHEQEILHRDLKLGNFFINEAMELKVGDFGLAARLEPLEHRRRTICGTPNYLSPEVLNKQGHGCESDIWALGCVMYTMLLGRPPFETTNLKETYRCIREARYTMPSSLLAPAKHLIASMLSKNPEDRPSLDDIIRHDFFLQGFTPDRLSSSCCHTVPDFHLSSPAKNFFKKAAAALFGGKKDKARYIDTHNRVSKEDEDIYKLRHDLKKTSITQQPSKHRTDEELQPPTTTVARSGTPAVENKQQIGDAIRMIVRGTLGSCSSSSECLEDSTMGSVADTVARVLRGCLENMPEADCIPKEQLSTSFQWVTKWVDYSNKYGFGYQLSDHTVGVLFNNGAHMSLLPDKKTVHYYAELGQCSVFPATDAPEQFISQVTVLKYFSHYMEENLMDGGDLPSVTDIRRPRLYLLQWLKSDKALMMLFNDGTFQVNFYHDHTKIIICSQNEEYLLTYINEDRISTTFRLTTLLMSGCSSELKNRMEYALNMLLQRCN
Sequence of UniProt O76039 (whole entry, looked up): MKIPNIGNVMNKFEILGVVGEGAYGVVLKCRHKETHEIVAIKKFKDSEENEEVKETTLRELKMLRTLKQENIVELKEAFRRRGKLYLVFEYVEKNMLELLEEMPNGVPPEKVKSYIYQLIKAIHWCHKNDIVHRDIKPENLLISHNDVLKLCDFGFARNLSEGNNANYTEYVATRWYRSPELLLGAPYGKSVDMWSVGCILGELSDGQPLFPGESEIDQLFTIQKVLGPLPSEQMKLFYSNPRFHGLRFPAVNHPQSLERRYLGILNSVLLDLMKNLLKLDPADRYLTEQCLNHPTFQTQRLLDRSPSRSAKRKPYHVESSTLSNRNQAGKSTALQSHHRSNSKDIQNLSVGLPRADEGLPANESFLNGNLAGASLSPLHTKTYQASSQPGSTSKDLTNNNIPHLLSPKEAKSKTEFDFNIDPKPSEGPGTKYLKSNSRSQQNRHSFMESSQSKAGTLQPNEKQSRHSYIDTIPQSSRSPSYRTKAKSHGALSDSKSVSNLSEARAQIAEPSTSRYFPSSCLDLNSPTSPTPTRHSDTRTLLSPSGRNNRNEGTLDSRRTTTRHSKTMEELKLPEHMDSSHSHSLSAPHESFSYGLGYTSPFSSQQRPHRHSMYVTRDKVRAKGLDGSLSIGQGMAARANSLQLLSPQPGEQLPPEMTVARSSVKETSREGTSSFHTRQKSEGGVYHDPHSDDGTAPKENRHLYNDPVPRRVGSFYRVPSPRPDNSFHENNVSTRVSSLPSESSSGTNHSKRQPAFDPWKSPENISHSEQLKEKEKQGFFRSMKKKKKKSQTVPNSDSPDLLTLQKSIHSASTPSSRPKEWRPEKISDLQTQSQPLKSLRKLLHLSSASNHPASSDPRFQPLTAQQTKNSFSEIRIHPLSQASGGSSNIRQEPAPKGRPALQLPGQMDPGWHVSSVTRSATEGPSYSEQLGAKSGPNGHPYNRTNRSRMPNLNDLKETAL
Sequence of UniProt P07948 (whole entry, looked up): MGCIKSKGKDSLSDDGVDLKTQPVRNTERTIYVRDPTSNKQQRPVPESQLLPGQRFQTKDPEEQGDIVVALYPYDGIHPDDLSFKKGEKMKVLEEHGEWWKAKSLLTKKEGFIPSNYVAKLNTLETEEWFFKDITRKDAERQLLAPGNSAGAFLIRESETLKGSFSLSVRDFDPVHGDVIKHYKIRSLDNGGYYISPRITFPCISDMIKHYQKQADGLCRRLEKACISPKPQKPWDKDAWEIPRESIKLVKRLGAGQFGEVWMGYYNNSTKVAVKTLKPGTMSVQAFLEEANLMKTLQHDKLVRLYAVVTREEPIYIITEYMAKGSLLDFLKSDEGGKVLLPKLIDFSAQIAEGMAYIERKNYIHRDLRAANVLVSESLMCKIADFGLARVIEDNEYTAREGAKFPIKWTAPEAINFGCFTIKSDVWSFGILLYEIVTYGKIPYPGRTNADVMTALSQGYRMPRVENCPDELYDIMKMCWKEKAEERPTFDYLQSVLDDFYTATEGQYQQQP

Set 1 — read-out: enzyme activity; mode: inhibitor; concentration: 10 µM
Target: Calcium/calmodulin-dependent protein kinase type II subunit alpha (CAMK2A, Homo sapiens, UniProt Q9UQM7)
Sequence of UniProt Q9UQM7 (whole entry, looked up): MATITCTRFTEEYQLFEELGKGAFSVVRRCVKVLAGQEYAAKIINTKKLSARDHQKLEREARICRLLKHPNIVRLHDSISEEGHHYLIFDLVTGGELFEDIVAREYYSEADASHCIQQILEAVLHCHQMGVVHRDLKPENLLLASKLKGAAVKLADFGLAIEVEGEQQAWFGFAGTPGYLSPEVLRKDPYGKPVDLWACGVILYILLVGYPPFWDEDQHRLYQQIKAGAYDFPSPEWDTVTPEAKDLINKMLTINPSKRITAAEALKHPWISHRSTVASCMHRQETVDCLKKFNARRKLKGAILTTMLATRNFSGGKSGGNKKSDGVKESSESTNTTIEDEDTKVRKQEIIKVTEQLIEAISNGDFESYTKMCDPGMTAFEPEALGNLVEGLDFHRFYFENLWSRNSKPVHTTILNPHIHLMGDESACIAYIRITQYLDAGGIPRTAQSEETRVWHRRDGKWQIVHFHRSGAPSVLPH
Structure (SMILES) | inhibition
O=C1O[C@H]2[C@@H]3OC(=O)c4cc(O)c(O)c(O)c4-c4c(cc(O)c(O)c4O)C(=O)OC[C@H]2O[C@@H](OC(=O)c2cc(O)c(O)c(O)c2)[C@@H]3OC(=O)c2cc(O)c(O)c3c2[C@@H]2C1=CC(=O)[C@](O)(O3)C2(O)O | -27%
C[C@H](O)C(=O)O | 0%
O=c1c2cc(O)ccc2oc2cc(O)cc(O)c12 | -67%
COc1ccc(C(=O)NCc2ccc(OCCN(C)C)cc2)cc1OC | -7%
CC1(C)C2=CCCC(C)(C)[C@]23CC[C@H]1C3 | -25%
CCCCC1=NC2(CCCC2)C(=O)N1Cc1ccc(-c2ccccc2-c2nnn[nH]2)cc1 | 1%
CC(C)=CCc1c2ccoc2c(O)c2oc(=O)ccc12 | -17%
C[C@H]1C[C@H]2[C@@H]3CCC4=CC(=O)C=C[C@]4(C)[C@H]3C(=O)C[C@]2(C)[C@@]1(O)C(=O)CO | 5%
CSc1ccc2c(c1)N(CCC1CCCCN1C)c1ccccc1S2 (centres unmarked) | -3%
O=C(O)CCC(=O)c1ccc(-c2ccccc2)cc1 | -7%
CC(C)=CCC[C@](C)(O[C@@H]1O[C@H](CO[C@@H]2OC[C@H](O)[C@H](O)[C@H]2O)[C@@H](O)[C@H](O)[C@H]1O)[C@H]1CC[C@]2(C)[C@@H]1[C@H](O)C[C@@H]1[C@@]3(C)CC[C@H](O)C(C)(C)[C@@H]3[C@@H](O)C[C@]12C | 0%

Set 2 — SMILES: C=CCc1ccc(O)c(-c2ccc(O)c(CC=C)c2)c1; read-out: chloride current
ANO1 del476-501/R541A: Anoctamin-1 (ANO1, Homo sapiens, UniProt Q5XXA6, del476-501/R541A)
Sequence of UniProt Q5XXA6 (whole entry, unmodified, looked up): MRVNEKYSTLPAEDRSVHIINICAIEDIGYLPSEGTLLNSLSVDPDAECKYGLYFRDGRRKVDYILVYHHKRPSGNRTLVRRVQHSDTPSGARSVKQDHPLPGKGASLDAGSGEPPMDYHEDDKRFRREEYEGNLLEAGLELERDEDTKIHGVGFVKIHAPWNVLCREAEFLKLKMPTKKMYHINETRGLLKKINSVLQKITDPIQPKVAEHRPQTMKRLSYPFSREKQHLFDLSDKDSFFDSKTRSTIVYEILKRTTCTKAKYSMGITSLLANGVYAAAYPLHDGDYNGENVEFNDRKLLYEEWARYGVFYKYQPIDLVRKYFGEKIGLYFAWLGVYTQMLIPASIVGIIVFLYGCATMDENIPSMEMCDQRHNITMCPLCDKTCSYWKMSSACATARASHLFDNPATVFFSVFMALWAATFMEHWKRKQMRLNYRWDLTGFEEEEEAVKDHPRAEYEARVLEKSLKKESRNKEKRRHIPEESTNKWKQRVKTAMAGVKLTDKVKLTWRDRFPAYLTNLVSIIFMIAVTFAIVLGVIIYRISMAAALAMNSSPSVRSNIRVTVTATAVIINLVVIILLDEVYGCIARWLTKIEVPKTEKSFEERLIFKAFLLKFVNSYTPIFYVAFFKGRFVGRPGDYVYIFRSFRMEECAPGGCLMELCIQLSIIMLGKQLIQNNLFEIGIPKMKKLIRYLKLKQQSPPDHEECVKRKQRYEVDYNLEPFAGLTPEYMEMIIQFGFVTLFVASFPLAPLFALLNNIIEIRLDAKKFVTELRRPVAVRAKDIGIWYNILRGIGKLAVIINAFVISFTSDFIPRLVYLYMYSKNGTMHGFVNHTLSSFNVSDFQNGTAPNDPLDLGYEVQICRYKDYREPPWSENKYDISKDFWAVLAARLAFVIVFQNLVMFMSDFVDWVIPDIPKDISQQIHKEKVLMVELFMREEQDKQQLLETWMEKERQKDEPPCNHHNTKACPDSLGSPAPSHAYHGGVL
ANO1 del476-501/F628A: Anoctamin-1 (ANO1, Homo sapiens, UniProt Q5XXA6, del476-501/F628A)
ANO1 del476-501: Anoctamin-1 (ANO1, Homo sapiens, UniProt Q5XXA6, del476-501)
target | mode | method | concentration | notes | together with | normalized current
ANO1 del476-501/R541A | inhibitor | inside-out patch clamp | 10 µM | R515A mutant at -80 mV |  | -0.529
ANO1 del476-501/F628A |  | whole-cell voltage clamp | 30 µM | concentration-response at -20 mV | 4 µM Ca2+ | -0.0964
ANO1 del476-501/F628A |  | whole-cell voltage clamp | 100 µM | I-V at 60 mV | 4 µM Ca2+ | 0.14
ANO1 del476-501/F628A |  | whole-cell voltage clamp | 3 µM | I-V at 60 mV | 4 µM Ca2+ | 0.485
ANO1 del476-501/F628A |  | whole-cell voltage clamp | 30 µM | concentration-response at 100 mV | 4 µM Ca2+ | 0.463
TMEM16A (human) K603A/E623A |  | inside-out patch clamp | 10 µM | membrane voltage 0 mV |  | -0.0027
ANO1 del476-501 |  | whole-cell voltage clamp | 3 µM | wild type, I-V at 20 mV | 4 µM Ca2+ | 0.152
ANO1 del476-501/R541A |  | inside-out patch clamp | 10 µM | membrane voltage -40 mV |  | -0.243
Anoctamin-1 (ANO1, Homo sapiens, UniProt Q5XXA6) | inhibitor | inside-out patch clamp | 10 µM | wild type at -80 mV |  | -0.575
ANO1 del476-501 |  | whole-cell voltage clamp | 3 µM | wild type, concentration-response at -20 mV | 4 µM Ca2+ | -0.141
ANO1 del476-501/F628A |  | whole-cell voltage clamp | 30 µM | concentration-response at 60 mV | 4 µM Ca2+ | 0.303
ANO1 del476-501/F628A |  | whole-cell voltage clamp | 10 µM | I-V at 40 mV | 4 µM Ca2+ | 0.25
Anoctamin-1 (ANO1, Homo sapiens, UniProt Q5XXA6, del476-501/E649A/R541A) |  | inside-out patch clamp | 10 µM | membrane voltage 60 mV |  | 0.357
ANO1 del476-501/F628A |  | whole-cell voltage clamp | 3 µM | I-V at 20 mV | 4 µM Ca2+ | 0.138
ANO1 del476-501 |  | whole-cell voltage clamp | 1 µM | wild type, concentration-response at -80 mV | 4 µM Ca2+ | -0.637
ANO1 del476-501 |  | whole-cell voltage clamp | 10 µM | wild type, I-V at -40 mV | 4 µM Ca2+ | -0.12
Anoctamin-1 (ANO1, Homo sapiens, UniProt Q5XXA6, del476-501/K629A) | inhibitor | inside-out patch clamp | 10 µM | K603A mutant at -100 mV |  | -0.612

Set 3 — read-out: enzyme activity; mode: inhibitor; concentration: 0.5 µM; relative to: control
Compound: CCCNC(=O)Nc1ccc(Oc2ncnc3cc(OC)c(OC)cc23)cc1Cl
target | remaining activity [%]
Mitogen-activated protein kinase kinase kinase 10 (MAP3K10, Homo sapiens, UniProt Q02779) | 103
Serine/threonine-protein kinase WNK2 (WNK2, Homo sapiens, UniProt Q9Y3S1) | 100
Leucine-rich repeat serine/threonine-protein kinase 2 (LRRK2, Homo sapiens, UniProt Q5S007) | 94.1
MAP kinase-interacting serine/threonine-protein kinase 2 (MKNK2, Homo sapiens, UniProt Q9HBH9) | 81.3
Protein kinase C iota type (PRKCI, Homo sapiens, UniProt P41743) | 93
Casein kinase I isoform alpha (CSNK1A1, Homo sapiens, UniProt P48729) | 98.9
Mitogen-activated protein kinase 13 (MAPK13, Homo sapiens, UniProt O15264) | 100
Mast/stem cell growth factor receptor Kit (KIT, Homo sapiens, UniProt P10721) | 39.2
Tyrosine-protein kinase Lyn (LYN, Homo sapiens, UniProt P07948) | 75.5
cGMP-dependent protein kinase 1 (PRKG1, Homo sapiens, UniProt Q13976) | 76.8
Dual specificity mitogen-activated protein kinase kinase 6 (MAP2K6, Homo sapiens, UniProt P52564) | 106
Serine/threonine-protein kinase Nek4 (NEK4, Homo sapiens, UniProt P51957) | 76
RAC-gamma serine/threonine-protein kinase (AKT3, Homo sapiens, UniProt Q9Y243) | 88.9
Interleukin-1 receptor-associated kinase 4 (IRAK4, Homo sapiens, UniProt Q9NWZ3) | 92
Serine/threonine-protein kinase 38 (STK38, Homo sapiens, UniProt Q15208) | 87.9
Casein kinase II subunit alpha (CSNK2A1, Homo sapiens, UniProt P68400) | 105
Tyrosine-protein kinase BTK (BTK, Homo sapiens, UniProt Q06187) | 98.6
Cyclin-dependent kinase 9, with cyclin T1 (CDK9, Homo sapiens, UniProt P50750) | 98
Protein kinase C delta type (PRKCD, Homo sapiens, UniProt Q05655) | 90.1
Mitogen-activated protein kinase kinase kinase kinase 2 (MAP4K2, Homo sapiens, UniProt Q12851) | 83.1
Serine/threonine-protein kinase Chk1 (CHEK1, Homo sapiens, UniProt O14757) | 77
Ephrin type-A receptor 5 (EPHA5, Homo sapiens, UniProt P54756) | 81.8
Serine/threonine-protein kinase PLK2 (PLK2, Homo sapiens, UniProt Q9NYY3) | 104
Mitogen-activated protein kinase 12 (MAPK12, Homo sapiens, UniProt P53778) | 61.9

Set 4 — read-out: cell-free assay; method: competition with immobilised ligand; concentration: 1 µM
SMILES: CC(=O)c1c(NS(C)(=O)=O)c2cc(-c3ccc(Cl)cc3)c(-c3ccc(Cl)cc3Cl)nc2n(C)c1=O
target | remaining binding [%]
Hepatocyte growth factor receptor (MET, Homo sapiens, UniProt P08581) | 100
Calcium/calmodulin-dependent protein kinase type II subunit alpha (CAMK2A, Homo sapiens, UniProt Q9UQM7) | 100
Homeodomain-interacting protein kinase 2 (HIPK2, Homo sapiens, UniProt Q9H2X6) | 87
Mast/stem cell growth factor receptor Kit (KIT, Homo sapiens, UniProt P10721, A829P) | 96
BDNF/NT-3 growth factors receptor (NTRK2, Homo sapiens, UniProt Q16620) | 94
Tyrosine-protein kinase Srms (SRMS, Homo sapiens, UniProt Q9H3Y6) | 71
Serine/threonine-protein kinase 38 (STK38, Homo sapiens, UniProt Q15208) | 77
Mitogen-activated protein kinase kinase kinase 14 (MAP3K14, Homo sapiens, UniProt Q99558) | 63
Mast/stem cell growth factor receptor Kit (KIT, Homo sapiens, UniProt P10721) | 100
Serine/threonine-protein kinase 4 (STK4, Homo sapiens, UniProt Q13043) | 100
Receptor-interacting serine/threonine-protein kinase 1 (RIPK1, Homo sapiens, UniProt Q13546) | 97
Serine/threonine-protein kinase DCLK3 (DCLK3, Homo sapiens, UniProt Q9C098) | 100
Ribosomal protein S6 kinase alpha-4, C-terminal kinase domain (RPS6KA4, Homo sapiens, UniProt O75676) | 93
Serine/threonine-protein kinase PLK2 (PLK2, Homo sapiens, UniProt Q9NYY3) | 96
SRSF protein kinase 2 (SRPK2, Homo sapiens, UniProt P78362) | 100
Serine/threonine-protein kinase Nek10 (NEK10, Homo sapiens, UniProt Q6ZWH5) | 99
Serine/threonine-protein kinase LATS2 (LATS2, Homo sapiens, UniProt Q9NRM7) | 78
Ribosomal protein S6 kinase alpha-2, C-terminal kinase domain (RPS6KA2, Homo sapiens, UniProt Q15349) | 80
Serine/threonine-protein kinase Nek11 (NEK11, Homo sapiens, UniProt Q8NG66) | 79
Cyclin-dependent kinase-like 5 (CDKL5, Homo sapiens, UniProt O76039) | 94
Tyrosine-protein kinase ABL1, non-phosphorylated (ABL1, Homo sapiens, UniProt P00519, H396P) | 100
Activated CDC42 kinase 1 (TNK2, Homo sapiens, UniProt Q07912) | 92
Dual specificity protein kinase CLK4 (CLK4, Homo sapiens, UniProt Q9HAZ1) | 100
Tyrosine-protein kinase ABL1, non-phosphorylated (ABL1, Homo sapiens, UniProt P00519) | 91
Dual specificity tyrosine-phosphorylation-regulated kinase 1A (DYRK1A, Homo sapiens, UniProt Q13627) | 77

Some of these lines once more (set 4):
target | remaining binding [%]
BDNF/NT-3 growth factors receptor (NTRK2, Homo sapiens, UniProt Q16620) | 94
Tyrosine-protein kinase Srms (SRMS, Homo sapiens, UniProt Q9H3Y6) | 71
Serine/threonine-protein kinase 38 (STK38, Homo sapiens, UniProt Q15208) | 77
Mitogen-activated protein kinase kinase kinase 14 (MAP3K14, Homo sapiens, UniProt Q99558) | 63
Mast/stem cell growth factor receptor Kit (KIT, Homo sapiens, UniProt P10721) | 100
Serine/threonine-protein kinase 4 (STK4, Homo sapiens, UniProt Q13043) | 100
Receptor-interacting serine/threonine-protein kinase 1 (RIPK1, Homo sapiens, UniProt Q13546) | 97
Serine/threonine-protein kinase DCLK3 (DCLK3, Homo sapiens, UniProt Q9C098) | 100
Ribosomal protein S6 kinase alpha-4, C-terminal kinase domain (RPS6KA4, Homo sapiens, UniProt O75676) | 93
Serine/threonine-protein kinase PLK2 (PLK2, Homo sapiens, UniProt Q9NYY3) | 96
SRSF protein kinase 2 (SRPK2, Homo sapiens, UniProt P78362) | 100
Serine/threonine-protein kinase Nek10 (NEK10, Homo sapiens, UniProt Q6ZWH5) | 99
